Measured values pooled from the literature.
Protocols differ between the studies behind these lines. “And” joins repeats or separate records; there may be more than shown. ± marks the error that the study gave. ≈ marks a conversion by molar mass, not a printed value.

Structure (SMILES)	test	system	setting	how to read	endpoint	value
CCSc1nc2ccccc2n1Cc1nnc(-c2ccc(OC)cc2)o1	relaxation	isolated rabbit jejunum	spontaneous contractions		EC50	0.27 ± 0.11 µg/mL (≈ 0.737 µM)
C[C@]1(CO)Cc2ncn(-c3ccc(C#N)c(Cl)c3)c2C(=O)O1		Japanese subjects	20 mg single dose		urinary potassium excretion 0-24 h	26.6 mmol
[131I-].[Na+]	ATA response criteria	human, papillary thyroid cancer with metastases	3700 MBq		structural incomplete response	18.6%
Cc1nc(Nc2ccc(CC(=O)O)cc2)nc(Nc2ccc(F)c(C(F)(F)F)c2)c1C	histology	C57BL/6J mouse, high-fat diet MASH model	intraperitoneal, 0.3 mg/kg daily, 60% fat diet for 12 weeks, dosed final four weeks	baseline: untreated	liver parenchymal dysregulation	decreased
CCSc1nc2ccccc2n1Cc1nnc(-c2ccc(Cl)cc2)o1	relaxation	isolated rabbit jejunum	spontaneous contractions		EC50	0.26 ± 0.21 µg/mL (≈ 0.701 µM)
Oc1ccc(Cc2ccc(O)cc2)cc1	DPPH radical		300 µg/mL		radical scavenging	23.4 ± 0.38%
CCSc1nc2ccccc2n1Cc1nnc(-c2ccc([N+](=O)[O-])cc2)o1	relaxation	isolated rabbit jejunum	spontaneous contractions		EC50	0.22 ± 0.04 µg/mL (≈ 0.577 µM)
C=CC[C@@H]1c2ccc(OC)c(OC)c2CN2CCc3cc4c(cc3[C@H]12)OCO4		P2rx7 A312V/A312V mouse, S. aureus wound infection	dose not given, day 0	baseline: day 0	relative wound size	1
Clc1cc2c(cc1Cl)Oc1cc(Cl)c(Cl)cc1O2	RNA-Seq, item: Dpep1	female Sprague-Dawley rat, liver	dose not given	baseline: vehicle	mRNA level	3.3 fold
CC(C)C1CCC(N2CCC(N3C(=O)C(=O)c4ccccc43)CC2)CC1 (centres unmarked)		conscious Sprague-Dawley rat	intravenous bolus, 30 nmol/kg		mean arterial pressure change	decreased
c1csc(-c2ccc(-c3cccs3)s2)c1		C57BL/6J mouse, diet-induced obese	intraperitoneal, 5 mg/kg daily, 336 h		liver weight	1.91 ± 0.21 g
O=C1O[C@H]2[C@@H]3OC(=O)c4cc(O)c(O)c(O)c4-c4c(O)c(O)c5oc(=O)c6c(c(O)c(O)c7oc(=O)c4c5c76)-c4c(cc(O)c(O)c4O)C(=O)OC[C@H]3OC(O)[C@@H]2OC(=O)c2cc(O)c(O)c(O)c2-c2c1cc(O)c(O)c2O (mixture of isomers)	FeCl3 carotid thrombosis model	mouse	oral gavage, 100 µg/g, 90 min, with: 10% FeCl3 for 3 min		vessels not occluded	~50%
O=c1c(O)c(-c2ccc(O[C@@H]3O[C@H](CO)[C@@H](O)[C@H](O)[C@H]3O)c(O)c2)oc2cc(O)cc(O)c12	Fe3+ reduction, ferricyanide reduction		30 µg/mL		absorbance	1.01 ± 0.093
C[C@H]1O[C@@H](O[C@H]2CC[C@@]3(C)[C@@H](CC[C@]4(C)[C@@H]3C=C[C@]35OC[C@@]6(CCC(C)(C)C[C@H]63)[C@@H](O)C[C@]54C)[C@]2(C)CO)[C@H](O)[C@@H](O[C@@H]2O[C@H](CO)[C@@H](O)[C@H](O)[C@H]2O)[C@H]1O		Mus musculus, chronic-plus-binge ethanol-fed, AAV8-TBG-Null vector, serum	oral, high dose, 5 h		triglycerides	1.01 mM and 0.563 mM and 0.622 mM and 0.763 mM and 0.905 mM and 1.07 mM
Cc1cn(-c2cc(NC(=O)c3ccc(C)c(Nc4nccc(-c5cccnc5)n4)c3)cc(C(F)(F)F)c2)cn1		Alzheimer's disease patients	300 mg, 12 months, group mean	direction not given	ADCS-ADL score	52.7 ± 12.8
CN1CCN(S(=O)(=O)c2cc([N+](=O)[O-])ccc2N(CCOS(C)(=O)=O)CCOS(C)(=O)=O)CC1		NSG mice, sample CD PDX	intraperitoneal, 25 mg/kg weekly x3	baseline: vehicle	EFS delay (T-C)	66.6 days
COc1ncc(-c2nc3c(n2C(C)C)[C@H](c2ccc(Cl)cc2)N(c2cc(Cl)cn(C)c2=O)C3=O)c(OC)n1	antileukemic activity, item: treatment failure, resistant disease	human, acute myeloid leukaemia	350 to 400 mg, high-dose, other doses		best overall response	50%
CC[C@H](C)[C@@H]1NC(=O)[C@@H]2CCCN2C(=O)[C@H](CC(C)C)NC(=O)[C@H](CC(C)C)NC(=O)CNC(=O)[C@@H](NC(=O)[C@@H](NC(=O)[C@H](CC(=O)O)NC(=O)CNC(=O)[C@@H](NC(=O)[C@H](C)NC(=O)CNC(=O)[C@H](CCCCN)NC(=O)[C@H](CC(C)C)NC(=O)[C@H](CC(C)C)NC(=O)[C@H](CCCCN)NC(=O)CNC(=O)[C@@H](NC(=O)[C@@H](N)CC(C)C)C(C)C)C(C)C)C(C)C)CSSC[C@@H](C(=O)O)NC1=O	RNA-seq, item: Irf2bp2 mRNA	mouse traumatic brain injury, frontal cortex and hippocampus	dose not given	baseline: TBI plus compound vs TBI	log2 fold change	-0.86
CCSc1nc2ccccc2n1Cc1nnc(-c2cccc(OC)c2O)o1	relaxation	isolated rabbit jejunum	spontaneous contractions		EC50	0.24 µg/mL (≈ 0.628 µM)
CS(=O)(=O)c1ccc(-c2nnc(/C=C/c3nnc(-c4ccc(C#N)cc4)o3)n2-c2ccccc2Cl)nc1	RNA-seq GSEA, item: HALLMARK_BILE_ACID_METABOLISM	organoids, small intestinal, Apc Q1405X, mouse	dose not given, 3 days, knockout organoids	baseline: DMSO, direction not given	normalized enrichment score	1.87
CCCCC1(CCCC)CN(c2ccccc2)c2cc(SC)c(OCC(=O)N[C@@H](C(=O)NCC(=O)O)c3ccccc3)cc2S(=O)(=O)C1	item: HDL cholesterol	human, serum	2.5 mg once daily, day 11		serum HDL-C	51.6 mg/dL
CCSc1nc2ccccc2n1Cc1nnc(-c2cc(OC)c(OC)c(OC)c2)o1	relaxation, calcium antagonist	isolated rabbit jejunum	with: 80 mM K+ contraction		EC50	0.45 ± 0.05 µg/mL (≈ 1.06 µM)
CNC(=O)c1c(C)oc2cc(Oc3ccnc4cc(OCCN5CCOCC5)ccc34)ccc12	DCE-MRI Ktrans	patients	dose not given, all doses		vascular responders	50%

Excerpt of the above:
Structure (SMILES)	test	system	setting	how to read	endpoint	value
C=CC[C@@H]1c2ccc(OC)c(OC)c2CN2CCc3cc4c(cc3[C@H]12)OCO4		P2rx7 A312V/A312V mouse, S. aureus wound infection	dose not given, day 0	baseline: day 0	relative wound size	1
[131I-].[Na+]	ATA response criteria	human, papillary thyroid cancer with metastases	3700 MBq		structural incomplete response	18.6%
CCSc1nc2ccccc2n1Cc1nnc(-c2cccc(OC)c2O)o1	relaxation	isolated rabbit jejunum	spontaneous contractions		EC50	0.24 µg/mL (≈ 0.628 µM)
